Assay results from different studies.
Compare with care: the assays were run in different laboratories.
TDP1: Tyrosyl-DNA phosphodiesterase 1 (TDP1, Homo sapiens, UniProt Q9NUW8)
UniProt Q9NUW8, sequence (whole entry, looked up): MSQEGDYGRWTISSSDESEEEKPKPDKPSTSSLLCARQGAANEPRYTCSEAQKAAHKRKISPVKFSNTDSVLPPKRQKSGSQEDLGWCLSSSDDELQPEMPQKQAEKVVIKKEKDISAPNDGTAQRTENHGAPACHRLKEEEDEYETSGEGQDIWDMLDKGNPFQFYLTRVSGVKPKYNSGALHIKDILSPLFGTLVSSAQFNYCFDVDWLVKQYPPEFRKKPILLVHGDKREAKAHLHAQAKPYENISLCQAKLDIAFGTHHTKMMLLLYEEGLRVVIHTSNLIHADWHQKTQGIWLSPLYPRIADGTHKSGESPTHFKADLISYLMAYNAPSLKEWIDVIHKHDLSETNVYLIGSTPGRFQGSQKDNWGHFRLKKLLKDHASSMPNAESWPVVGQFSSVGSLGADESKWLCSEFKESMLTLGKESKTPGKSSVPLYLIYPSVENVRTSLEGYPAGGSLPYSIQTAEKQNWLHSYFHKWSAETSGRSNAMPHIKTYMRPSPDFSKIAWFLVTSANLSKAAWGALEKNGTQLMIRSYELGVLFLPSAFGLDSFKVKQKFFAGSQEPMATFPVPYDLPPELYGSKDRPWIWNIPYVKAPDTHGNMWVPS

For `C/C(N)=N/C(=N\S(=O)(=O)c1ccc(C(F)(F)F)cc1)N1C[C@H](c2ccccc2)C(c2ccc(Cl)cc2)=N1`, the Tmax was 2 h (beagle dog, plasma; oral, 24 mg/kg).
The Tmax of `C=C(NC(=O)c1csc(-c2nc3c(cc2O)-c2nc(cs2)C(=O)NC(C(C)O)C(=O)NC(=C(C)OC)c2nc(cs2)C(=O)NC2c4nc(cs4)C(=O)NC(COC(=O)c4c5c6c(cccc6n4O)COC(=O)C(OC4CC(C)(O)C(N(C)C)C(C)O4)C2OC5)c2nc-3cs2)n1)C(N)=O` (centres unmarked) is reported as 12.1 h (ICR mice, Streptococcus pneumoniae ATCC 49169 infected, immunocompromised, blood; intravenous, 16 mg/kg/day three times daily).
With `COc1cnc2cccc(N3CCc4c(cc(Cn5ccnc5)cc4-c4cn(C)nc4C(F)(F)F)C3=O)c2c1` the Tmax was 0.6 h (male CD-1 mouse, plasma; oral, 50 mg/kg).
`O=C(OC(C(F)(F)F)C(F)(F)F)N1CCC(CNS(=O)(=O)c2ccc(Cl)cc2)CC1` gave a Tmax of 4 h (male SCID mouse, plasma; oral, 30 mg/kg).
With `CC(C)C[C@H](NC(=O)[C@H](CCCN)NC(=O)CNC(=O)[C@@H](NC(=O)[C@H](C)NC(=O)[C@@H]1CSCSC[C@H](NC(=O)CC[C@H](N)C(=O)O)C(=O)N[C@@H](CC(N)=O)C(=O)N[C@@H]([C@@H](C)O)C(=O)N[C@@H](C)C(=O)N[C@@H]([C@@H](C)O)C(=O)N1)[C@@H](C)O)C(=O)N[C@@H](C)C(=O)N[C@@H](CCC(=O)O)C(=O)N[C@@](C)(Cc1ccccc1)C(=O)N[C@@H](CC(C)C)C(=O)N[C@H](C(=O)N[C@@H](CCCNC(=N)N)C(=O)N[C@@H](CO)C(=O)N[C@@H](CO)C(=O)N[C@@H](CC(N)=O)C(=O)N(C)[C@@H](CC(N)=O)C(=O)N[C@@H](Cc1ccccc1)C(=O)NCC(=O)N1CCC[C@H]1C(=O)N[C@@H](CCCCNC(=O)CC[C@H](NC(=O)CC[C@H](NC(=O)CCCCCCCCCCCCCCCCCCC(=O)O)C(=O)O)C(=O)O)C(=O)N[C@@H](CC(C)C)C(=O)N1CCC[C@H]1C(=O)N1CCC[C@H]1C(=O)N[C@H](C(=O)N[C@@H](CCC(=O)O)C(=O)N[C@H](C(=O)NCC(=O)N[C@@H](CO)C(=O)N[C@@H](CC(N)=O)C(=O)N[C@H](C(=O)N[C@@H](Cc1ccc(O)cc1)C(N)=O)[C@@H](C)O)C(C)C)[C@@H](C)O)C(C)C` the Tmax was 96 h (human, plasma; subcutaneous, 12 mg, single dose, healthy volunteers).
`Cn1ccc(-c2cc(Cl)c(Cl)c3[nH]c4c(c23)CN(C(=O)CO)CC4)n1` has a Tmax of 2 h (C57BL/6 mouse, blood; oral, 20 mg/kg).
With `Cc1cncc(Oc2ccc(C=NOCc3ccc4nc(-c5ccccc5)c(Nc5ccc(C(=O)O)cc5)n4c3)cc2)n1` the inhibition was 111% (TDP1; enzyme activity, inhibitor; 100 µM, unpurified compound).
With `Cc1cc(NC(=O)[C@H](O)c2cc(F)cc(F)c2)ccc1-c1cnc(N)c(C(=O)NC(C)C)c1` the Tmax was 1 h (female nude mouse, plasma; oral, 10 mg/kg, single dose).
`N#CSCc1ccc(C=NOCc2ccc3nc(-c4ccccc4)c(Nc4ccc(C(=O)O)cc4)n3c2)o1` gave an inhibition of 91.2% (TDP1; enzyme activity, inhibitor; 100 µM, unpurified compound).
`COc1cc2ncnc(Oc3ccc(Nc4nccc5[nH]cc(-c6ccc(F)cc6)c(=O)c45)cc3F)c2cc1OC` gave a Tmax of 2.33 h (male beagle dog, plasma; oral, 4 mg/kg).
With `[2H]C([2H])([2H])NC(=O)c1ccc(N2C(=S)N(c3ccc(C#N)c(C(F)(F)F)c3)C(=O)C2(C)C)cc1F` the Tmax was 1.35 h (male human, plasma; oral, 160 mg, single dose, fasted).

Repeated from above:
With `[2H]C([2H])([2H])NC(=O)c1ccc(N2C(=S)N(c3ccc(C#N)c(C(F)(F)F)c3)C(=O)C2(C)C)cc1F` the Tmax was 1.35 h (male human, plasma; oral, 160 mg, single dose, fasted).
